Experimental data collected from several papers.
Every numbered part comes from another study and shows a few of its results, in no order. Substitutions count along the parent as printed.

Series 1
Target: RING finger protein unkempt homolog, zinc fingers 1-6, GST-SBP tag (UNK, Homo sapiens, UniProt Q9C0B0, residues 30-357)
Sequence of UniProt Q9C0B0 (30-357, looked up): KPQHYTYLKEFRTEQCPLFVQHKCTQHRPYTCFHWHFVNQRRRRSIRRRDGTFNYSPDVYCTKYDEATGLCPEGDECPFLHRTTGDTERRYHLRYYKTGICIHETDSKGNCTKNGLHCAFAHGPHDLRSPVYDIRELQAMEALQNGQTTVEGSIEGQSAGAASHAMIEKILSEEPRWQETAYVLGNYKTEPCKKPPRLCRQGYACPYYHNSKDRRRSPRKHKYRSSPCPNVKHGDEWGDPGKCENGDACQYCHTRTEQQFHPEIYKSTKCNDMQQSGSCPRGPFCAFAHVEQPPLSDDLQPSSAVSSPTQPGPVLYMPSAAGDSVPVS
Method: RNA Bind-n-Seq
Molecule type: RNA
Sample: in vitro
Tested at: not given
Setting: RNA with constant flanks, human and mouse sites, ends assumed
Baseline: input RNA pool
Reading: higher = stronger binding
Endpoint: bound/input enrichment
Constant ends, left off below: GGGAGUUCUACAGUCCGACGAUC … CAACAGAGGAUUGAGCAUCA
GGAAUAGCGGUGCUUGCAGUGCCUGUGGACAGUCGAUUCCUGCAAGUGAGCUCGUCAUGAGGGCCCAAGGCAACGUGUAUCAUCUCAAGUGUUUCACAUGUUCUACCUGCCGGAAUCGCC: 0.126 ratio
AAACUAGGAUAUGCUGGAAAUACAGAGCCACAGUUUAUCAUCCCAUCAUGUAUUGCCAUUAAAGAGUCUGCAAAAGUGGGUGACCAAGCCCAGAGGAGGGUGAUGAAAGGCGUGGAUGAC: 0.532 ratio
GGAGGUUCGGGGCGCGGCGUAGCGUGCGGGGCGGAGGCCCUGACCGAUUCACAAUGACAUCCUUUCAAGAAGUCCAAUUGCAGACUUCCAAUUUUGCCCAUGUCAUCUUUCAAAAUGUGG: 0.15 ratio
UUCACCCCUGAUGGGAACCACUUCCUCUACUCUAGCUGGUCUGAUUACAUUCAUAUCUGCAAUAUCUAUGGUGAGGGAGAUACACACACUGCCCUGGAUCUCAGGCCAGAUGAGCGUCGC: 0.141 ratio
GCUCAGGAUUCUUUUAAAGGUACAAGGAUAGGUGUGAGGAUUUAUUUUUGGUUAUAUUUGAACUGUAUGAAUGGUGGGUCUGAAAACAGAGUAUUUCACGGUCUAGUGAGGAGGUAAACU: 0.39 ratio
AGGAUGAAUCGGACAGAUUCAGAAAUAUAUGAAGAUGCAGUAGAACUUCAGCAGUUUUUUAUUAAAAUUCGUGAUGAACUCUGCAAAAAUGGAGAGAUUCUUCUUUCACCGGCACUCAGC: 0.183 ratio
UUUUUUUUGUAACCACUGUCUUGAUGGCAAAAUAAUUAUGGUAAAAAACAAGUCUCGUGUUUAUUAUUCCUUAAGAACUCUGUGUUAUAUUACCAUGGAACGCCUAAUAAAGCAAAAUGU: 0.283 ratio
CCAAUUUUCUGGAUUGGACUGAUCAGUUCAGUUUGCUGUGUGUUUGCUCAAACAGAUGAAAAUAGAUGUUUAAAAGCAAAUGCCAAAUCAUGUGGAGAAUGUAUACAAGCAGGGCCAAAU: 0.181 ratio
GACAAAAGUGGACUUUAAAAAGUAAGCCUUUACGUGUUUGAUUCAGUCCACUGCUACAGGCUCACAAGCAGGUGUUUAUGUCUGAAAUUGGAGGUACCCAUUAUCUGAAAAUUCCUCUCC: 0.161 ratio
UUACAGCCAUGAAAAUGUGUCGGUUAUUCCUAAUUGUCAGUUCCGGUCAAAAACAGCACGUCUUAAAACUUUUACUGCCAACCAGAUAGAUGAAAUAAAAGACCCUUCUGGACUCUUUUA: 0.237 ratio
UUGUUUAAUAUUUAGAAGCACACAAAAAAGAGGAGAAUCGUUUGGAAUCAGCAGAAUAGGUAGCAAAAUUAAAGGCGUAUUCAAGAGUACGACAAUGGAGGGAGCUGUGCUGCCUAAUUA: 1.74 ratio

Series 2
Target: Fragile X messenger ribonucleoprotein 1, C-terminal low-complexity region (Fmr1, Mus musculus, UniProt P35922)
Method: RNA Bind-n-Seq
Molecule type: RNA
Sample: in vitro
Tested at: 200 nM
Setting: whole 134-nt RNA, ends assumed
Together with: 150 mM KCl
Baseline: input library
Reading: higher = stronger binding
Endpoint: log2 enrichment
Constant ends, left off below: GGGAGUUCUACAGUCCGACGAUC … UGGAAUUCUCGGGUGUCAAGG
UCCUGUGCUACACAUCGUAUGUACCGAAUCGGGGCCCCCGGGGCCCCCGGCCCCCGGGGAAAGUAUUAUGUUACGCCGUUCGGAUCUGCA: -0.353
UAGUGAAAUUUCUAAUAUAUAUAUUUUUUUCUUUAGGAGAAGAAACGAAUGCAUCAGAUCAACAGAAUGAACCCCAGUUAGGCCUGAAAG: -0.556
UGGGAGGUGGAUUUUGUUUAUUUUUUUAGCUCAUUUCCAGGGGUGGGAAUUUUUUUUUAAUAUGUGUCAUGAAUAAAGAUGUUUUUGAAA: 0.0151
UGACCUGCACGGACAUCAACACCCUGACAAGGCAGAAGGAACUUCUCCUGCAGAAGCUGAGCACAUUUGAGGAGACCAACCGCACCCUCC: 0.755
CAAGUCCUGUGCUACACAUCGUAUGUACCGAAUCGGUUUUUGGAAAAAGGUUUGGAAAGUAUUAUGUUACGCCGUUCGGAUCUGCACUUC: -1.1
UCAAGUCCUGUGCUACACAUCGUAUGUACCGAAUCGGUUUUUUUGGAGGAAAGGAAAGUAUUAUGUUACGCCGUUCGGAUCUGCACUUCC: -0.438
CACAGACAACACGCACCCACACAGACACAGAGGGAAGGGGUUGAGAUGGGGACAGGGUGCACAGCAGGGCGGGGUAGGACCCCAGCCCCU: 0.919
CACAGACAACACGCACCGACACAGACACAGAGGGAAGGGGUUGGGAUGGGGACAGGGUGCACAGCAGGGCGGGGUAGGACCCCAGCCCCU: 1.16
CAAGUCCUGUGCUACACAUCGUAUGUACCGAAUCGGAAAGGUUUGGAAAAAAAGGAAAGUAUUAUGUUACGCCGUUCGGAUCUGCACUUC: -0.841
CUCAAGUCCUGUGCUACACAUCGUAUGUACCGAAUCGGGAGGGUGGGAAAGGGAAAGUAUUAUGUUACGCCGUUCGGAUCUGCACUUCCA: 1.31
AUAUGAGUAAAAUCUGUCCCUUUUUCCCCCUUUGAAUGAGGUCUUCCAUGUUUGAGGGAAAGUCUUGCACUAUUGCAUAUAUUUUGGGGA: -0.251
UUGUUUUUUUUUUGUUCUUUUUUUCCAUGUCACUAAAGGCCCUCGGGACCAAGGAUCACGUCAUGACUCCGGUGAGUUCACACGUGGUGG: 0.056
GUCCUGUGCUACACAUCGUAUGUACCGAAUCGGGUUUUUGGGAAAAAGGGUUUUUGGGAAAGUAUUAUGUUACGCCGUUCGGAUCUGCAC: -0.282
CAAGUCCUGUGCUACACAUCGUAUGUACCGAAUCGGAAAAAGGUUUUUGGUUUGGAAAGUAUUAUGUUACGCCGUUCGGAUCUGCACUUC: -1.01

Series 3
Target: CCNE2, cyclin fold, Cln2 fusion (human)
Method: yeast growth competition, sequencing
Sample: yeast
Setting: strong parent motif
Baseline: not given
Reading: higher = stronger binding
Endpoint: normalised enrichment score
Parent: RBL2 docking peptide (human); STTRRRLFVENDS; partner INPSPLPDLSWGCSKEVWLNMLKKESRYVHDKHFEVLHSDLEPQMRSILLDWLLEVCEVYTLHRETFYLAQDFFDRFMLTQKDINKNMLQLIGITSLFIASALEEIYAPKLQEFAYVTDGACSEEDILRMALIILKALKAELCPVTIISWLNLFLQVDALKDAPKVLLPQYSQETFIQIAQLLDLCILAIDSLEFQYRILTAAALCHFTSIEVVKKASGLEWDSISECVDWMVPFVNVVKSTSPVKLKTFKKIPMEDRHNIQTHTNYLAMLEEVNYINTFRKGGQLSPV
D12N: 3.29
N11I: 3.04
E10P: 3.07
V9H: 3.48
R5F: 0.185
T2C: 4.13
S1E: 2.7
R6K: 3.57
L7Q: 0.271
R6H: 0.331
F8S: 0.665
F8Q: 0.309
T3F: 4.78
E10C: 2.45
N11D: 5.72
T2W: 4.13
T2Y: 3.9
L7S: -0.0945
T2N: 4.4
T3I: 4.3
E10T: 2.63
L7N: -0.639
S1Y: 4.01
R5V: -0.23
S13K: 4

Series 4
Target: ATP-dependent RNA helicase DDX3X, helicase core (DDX3X, Homo sapiens, UniProt O00571, residues 132-607)
Sequence of UniProt O00571 (132-607, looked up): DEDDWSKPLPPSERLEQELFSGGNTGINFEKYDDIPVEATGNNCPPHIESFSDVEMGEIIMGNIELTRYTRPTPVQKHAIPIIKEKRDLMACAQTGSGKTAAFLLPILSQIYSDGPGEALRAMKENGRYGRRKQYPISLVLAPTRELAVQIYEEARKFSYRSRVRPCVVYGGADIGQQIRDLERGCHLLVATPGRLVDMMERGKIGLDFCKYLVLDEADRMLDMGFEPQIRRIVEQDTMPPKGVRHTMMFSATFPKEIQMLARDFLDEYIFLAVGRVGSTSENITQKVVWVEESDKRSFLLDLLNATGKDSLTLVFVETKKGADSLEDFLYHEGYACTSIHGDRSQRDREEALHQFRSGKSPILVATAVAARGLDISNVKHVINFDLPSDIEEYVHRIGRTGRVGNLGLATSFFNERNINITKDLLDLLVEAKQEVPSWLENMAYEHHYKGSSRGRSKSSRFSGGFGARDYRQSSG
Method: RNA Bind-n-Seq
Molecule type: RNA
Sample: in vitro
Tested at: 90 pmol
Setting: 4-mer, random 30-nt RNA, single round
Together with: 3 µM iPr-DMDA-PatA, 2 mM ADP, 2 mM phosphate
Baseline: input library
Reading: higher = stronger binding
Endpoint: 4-mer enrichment
CUUA: 0.956 fold
UGUU: 0.964 fold
UAAG: 1.17 fold
AGCA: 1.05 fold
GAAC: 1.15 fold
CGCG: 0.768 fold
GAGA: 1.56 fold
CCCG: 1.03 fold
GCUC: 0.761 fold
UCCC: 1.2 fold
CCGA: 1.03 fold
AUUC: 1.01 fold
GCUG: 0.7 fold
AACU: 1.12 fold
UUUU: 1.19 fold

Excerpt of the above (series 4):
CGCG: 0.768 fold
GAGA: 1.56 fold
CCCG: 1.03 fold
GCUC: 0.761 fold
UCCC: 1.2 fold
CCGA: 1.03 fold
AUUC: 1.01 fold
GCUG: 0.7 fold
AACU: 1.12 fold
UUUU: 1.19 fold
